Measured values pooled from the literature.
Each numbered part is a random draw from the data of one study; scales do not carry over between parts. Values joined by “and” are separate records of one study, mostly repeats; a detail may differ.
Sequence of UniProt P48729 (whole entry, looked up): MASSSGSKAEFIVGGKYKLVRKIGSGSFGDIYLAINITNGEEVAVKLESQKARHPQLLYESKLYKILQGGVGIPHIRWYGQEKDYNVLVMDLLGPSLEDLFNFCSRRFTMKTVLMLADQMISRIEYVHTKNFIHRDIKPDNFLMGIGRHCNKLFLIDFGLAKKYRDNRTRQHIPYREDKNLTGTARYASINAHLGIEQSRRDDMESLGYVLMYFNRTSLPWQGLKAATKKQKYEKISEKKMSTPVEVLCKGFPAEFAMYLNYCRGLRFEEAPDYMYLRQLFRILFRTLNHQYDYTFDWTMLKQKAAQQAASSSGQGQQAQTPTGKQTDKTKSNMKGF
Sequence of UniProt Q9H2S9 (whole entry, looked up): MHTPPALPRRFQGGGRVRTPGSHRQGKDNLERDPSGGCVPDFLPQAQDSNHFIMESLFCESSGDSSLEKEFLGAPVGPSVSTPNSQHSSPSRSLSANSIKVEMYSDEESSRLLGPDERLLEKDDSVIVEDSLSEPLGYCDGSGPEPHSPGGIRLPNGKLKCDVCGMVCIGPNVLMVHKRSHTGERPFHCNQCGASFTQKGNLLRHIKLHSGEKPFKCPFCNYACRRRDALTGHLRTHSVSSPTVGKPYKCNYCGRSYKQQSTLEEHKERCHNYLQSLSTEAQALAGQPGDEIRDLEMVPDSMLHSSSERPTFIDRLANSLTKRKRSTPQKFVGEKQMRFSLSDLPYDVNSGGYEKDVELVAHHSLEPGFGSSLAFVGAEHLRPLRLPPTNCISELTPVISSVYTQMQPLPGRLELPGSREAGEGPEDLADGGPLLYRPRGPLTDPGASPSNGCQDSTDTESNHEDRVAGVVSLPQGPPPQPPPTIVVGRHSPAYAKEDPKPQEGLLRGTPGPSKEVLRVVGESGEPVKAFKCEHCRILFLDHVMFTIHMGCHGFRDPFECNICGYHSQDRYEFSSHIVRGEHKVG
Sequence of UniProt Q9UJQ4 (whole entry, looked up): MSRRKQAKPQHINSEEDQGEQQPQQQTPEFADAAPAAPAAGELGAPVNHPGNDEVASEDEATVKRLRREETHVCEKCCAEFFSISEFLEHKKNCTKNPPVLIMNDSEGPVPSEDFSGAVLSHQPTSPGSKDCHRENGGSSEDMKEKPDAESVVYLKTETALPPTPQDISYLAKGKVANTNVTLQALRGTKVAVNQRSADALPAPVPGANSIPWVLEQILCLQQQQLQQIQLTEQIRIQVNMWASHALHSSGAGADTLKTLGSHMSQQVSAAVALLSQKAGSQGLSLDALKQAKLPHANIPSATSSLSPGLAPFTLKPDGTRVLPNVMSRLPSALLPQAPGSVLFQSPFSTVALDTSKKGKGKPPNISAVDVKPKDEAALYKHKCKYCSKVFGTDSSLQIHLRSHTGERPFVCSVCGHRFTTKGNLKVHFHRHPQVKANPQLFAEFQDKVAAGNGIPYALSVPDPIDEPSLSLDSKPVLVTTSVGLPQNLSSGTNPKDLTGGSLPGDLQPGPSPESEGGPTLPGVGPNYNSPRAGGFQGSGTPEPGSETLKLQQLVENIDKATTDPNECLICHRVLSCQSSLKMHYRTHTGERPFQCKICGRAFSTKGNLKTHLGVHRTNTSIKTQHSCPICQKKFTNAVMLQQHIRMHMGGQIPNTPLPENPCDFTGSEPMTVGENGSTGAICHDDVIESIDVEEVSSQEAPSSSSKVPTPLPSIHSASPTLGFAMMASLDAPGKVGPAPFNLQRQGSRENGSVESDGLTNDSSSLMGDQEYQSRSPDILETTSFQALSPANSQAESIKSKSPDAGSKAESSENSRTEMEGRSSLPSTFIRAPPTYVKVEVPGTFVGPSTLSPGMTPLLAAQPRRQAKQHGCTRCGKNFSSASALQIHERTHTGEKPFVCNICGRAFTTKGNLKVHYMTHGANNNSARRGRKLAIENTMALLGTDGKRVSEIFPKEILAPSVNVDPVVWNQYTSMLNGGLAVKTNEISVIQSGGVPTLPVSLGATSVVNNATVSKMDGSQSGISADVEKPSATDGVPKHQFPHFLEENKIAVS

Sample 1
Compound: Cn1cc(-c2cccc(CN3CCC4(CC3)COc3c4ccc4c3CN([C@H]3CCC(=O)NC3=O)C4=O)c2)cn1
Action: degrader
Method: HiBiT
Cells: HEK293
Sal-like protein 4 (SALL4, Homo sapiens, UniProt Q9UJQ4); 0.5081 nM — remaining protein: 98.5% and 83.1%.
For Zinc finger protein Eos (IKZF4, Homo sapiens, UniProt Q9H2S9); 111.1 nM, 6 h: remaining protein read 104% and 105%.
For Casein kinase I isoform alpha (CSNK1A1, Homo sapiens, UniProt P48729); 4.572 nM: remaining protein read 101% and 104%.

Further values, each from its own experiment
With C#CCN1C(=O)C(O)(C(=O)O)Oc2cc(F)ccc21 (stereo not drawn) the inhibition was 70.5% and 72.4% and 70.1% (Abutilon theophrasti; fresh weight; 150 g ai/ha, pre-emergence treatment).
Cc1cc(-c2cnc(N)c3c(-c4ccc5scnc5c4)csc23)n(C)n1 has a viability of 39.7% and 41.5% and 44.9% and 33.7% (L929; MEM 10% FBS; 12.5 µM).
For N=C(N)NCCCCCCN1CCC23c4c5ccc(O)c4OC2c2nc4ccccc4cc2CC3(O)C1C5 (stereo not drawn), the seizure score was 0 (modified Racine scale; C57BL/6J mice, male; intracerebroventricular, 100 nmol, 65 min; direction not given).

A few entries again (sample 1):
Sal-like protein 4 (SALL4, Homo sapiens, UniProt Q9UJQ4); 0.5081 nM — remaining protein: 98.5% and 83.1%.
